Experimental data from different studies.
Protocols differ between the studies behind these lines. ± marks the error that the study gave.

For `O=C(Nc1ccc(OC(F)(F)F)cc1)N[C@H]1CC[C@H](Oc2ccc(C(=O)O)cc2)CC1`, the terminal half-life was 13 ± 0.5 h (horses, plasma; intravenous, 0.3 mg/kg).
With `CCCOc1ccc([C@H]2CNC(=O)N2c2ccc3[nH]cnc3c2)cc1` the terminal half-life was 6.36 h (non-elderly adults, fasted, plasma; oral, 200 mg twice daily, day 11, oral solution, geometric mean).
With `O=C1CCc2ccc(OCCCCN3CCN(c4cccc(Cl)c4Cl)CC3)cc2N1` the terminal half-life was 129 ± 21.3 h (healthy Japanese men, CYP2D6 IM, plasma; oral, 3 mg aripiprazole single, with: paroxetine 20 mg/day).
`CN[C@H]1C(=O)N[C@@H]2Cc3ccc(cc3)Oc3cc4cc(c3O[C@@H]3O[C@H](C(=O)O)[C@@H](O)[C@H](O)[C@H]3NC(=O)CCCCCCCCC(C)C)Oc3ccc(cc3Cl)[C@@H](O)[C@@H]3NC(=O)[C@H](NC(=O)[C@@H]4NC(=O)[C@@H](NC2=O)c2cc(cc(O)c2Cl)Oc2cc1ccc2O)c1ccc(O)c(c1)-c1c(O[C@H]2O[C@H](CO)[C@@H](O)[C@H](O)[C@@H]2O)cc(O)cc1[C@@H](C(=O)NCCCN(C)C)NC3=O` has a terminal half-life of 193 h (LC-MS/MS non-compartmental; healthy Japanese subjects, plasma; intravenous infusion, 1000 mg, 30 min infusion, sampling to day 28, arithmetic mean).
`CC(C)(Sc1ccncc1-c1ccc(C#N)c2ccccc12)C(=O)O` has a terminal half-life of 22 h (male, plasma; oral, 15 mg, severe renal impairment, fasted).
For `N#Cc1ccc2c(c1)[C@H]1CCCN(C(=O)c3ccc4[nH]cnc4c3)[C@H]1C2`, the terminal half-life was 106 to 124 h (type 2 diabetes patients, plasma; oral, 10 and 360 mg, steady state, multiple doses, range).
For `COc1cccc(N2CCN(C3=Nc4c(F)cccc4[C@H](CC(=O)O)N3c3cc(C(F)(F)F)ccc3OC)CC2)c1`, the terminal half-life was 10.8 ± 1.91 h (UHPLC-MS/MS; healthy women, plasma; intravenous infusion, 240 mg single dose, 30 min infusion, HPβCD formulation).
`NCCCC[C@@H]1NC(=O)[C@@H](Cc2c[nH]c3ccccc23)NC(=O)[C@H](c2ccccc2)NC(=O)[C@@H]2C[C@@H](OC(=O)NCCN)CN2C(=O)[C@H](Cc2ccccc2)NC(=O)[C@H](Cc2ccc(OCc3ccccc3)cc2)NC1=O` gave a terminal half-life of 31.7 ± 6.5 h (healthy male volunteers, plasma; subcutaneous, 600 µg).
The terminal half-life of `N[C@@H](CC(=O)N1CCc2c(nc(C(F)(F)F)nc2C(F)(F)F)C1)CN1CC(F)(F)CCC1=O` is reported as 8.77 h (healthy Korean male volunteers; oral, 50 mg, day 6, alone, mean).
With `CS(=O)(=O)n1cc2c(n1)CN([C@H]1CO[C@H](c3cc(F)ccc3F)[C@@H](N)C1)C2` the terminal half-life was greater than 100 h (healthy Japanese men, plasma; oral, dose not given).
